Experimental data of several laboratories.
Compare with care: the assays were run in different laboratories. “And” joins repeats or separate records; there may be more than shown. Numbers after ± are the reported error.
Peptidyl-prolyl cis-trans isomerase FKBP1B: Peptidyl-prolyl cis-trans isomerase FKBP1B (Homo sapiens, UniProt P68106)
Chain of UniProt P68106 (whole entry, looked up): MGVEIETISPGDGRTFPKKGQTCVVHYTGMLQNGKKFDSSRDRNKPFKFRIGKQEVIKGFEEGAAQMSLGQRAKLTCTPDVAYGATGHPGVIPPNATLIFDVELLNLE
BRD9: Bromodomain-containing protein 9 (BRD9, Homo sapiens, UniProt Q9H8M2)
Chain of UniProt Q9H8M2 (whole entry, looked up): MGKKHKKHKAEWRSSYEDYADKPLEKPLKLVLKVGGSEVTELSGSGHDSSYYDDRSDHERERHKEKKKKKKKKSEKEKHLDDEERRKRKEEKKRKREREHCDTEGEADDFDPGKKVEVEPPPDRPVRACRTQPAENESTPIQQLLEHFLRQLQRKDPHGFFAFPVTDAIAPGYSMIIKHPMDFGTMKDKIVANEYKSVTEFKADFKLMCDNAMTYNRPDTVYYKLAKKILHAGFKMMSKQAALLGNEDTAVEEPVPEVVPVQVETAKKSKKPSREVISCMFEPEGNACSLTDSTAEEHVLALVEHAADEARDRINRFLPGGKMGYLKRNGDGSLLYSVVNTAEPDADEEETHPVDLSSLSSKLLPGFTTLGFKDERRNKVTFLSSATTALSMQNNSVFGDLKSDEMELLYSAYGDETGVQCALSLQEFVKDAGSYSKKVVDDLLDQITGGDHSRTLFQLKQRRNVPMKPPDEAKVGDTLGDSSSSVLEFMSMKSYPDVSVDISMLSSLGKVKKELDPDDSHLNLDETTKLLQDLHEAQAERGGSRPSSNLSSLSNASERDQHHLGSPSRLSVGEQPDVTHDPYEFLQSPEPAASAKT
clpP: ATP-dependent Clp protease proteolytic subunit (clpP, Escherichia coli, UniProt P0A6G7)
Chain of UniProt P0A6G7 (whole entry, looked up): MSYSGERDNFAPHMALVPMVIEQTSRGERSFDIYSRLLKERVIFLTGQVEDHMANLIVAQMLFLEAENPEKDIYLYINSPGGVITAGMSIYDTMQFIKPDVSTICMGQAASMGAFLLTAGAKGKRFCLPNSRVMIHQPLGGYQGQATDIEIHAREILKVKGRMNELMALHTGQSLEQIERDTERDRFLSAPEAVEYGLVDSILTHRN
GAP50: Glideosome-associated protein 50 (GAP50, Plasmodium falciparum, UniProt Q8I2X3)
Chain of UniProt Q8I2X3 (whole entry, looked up): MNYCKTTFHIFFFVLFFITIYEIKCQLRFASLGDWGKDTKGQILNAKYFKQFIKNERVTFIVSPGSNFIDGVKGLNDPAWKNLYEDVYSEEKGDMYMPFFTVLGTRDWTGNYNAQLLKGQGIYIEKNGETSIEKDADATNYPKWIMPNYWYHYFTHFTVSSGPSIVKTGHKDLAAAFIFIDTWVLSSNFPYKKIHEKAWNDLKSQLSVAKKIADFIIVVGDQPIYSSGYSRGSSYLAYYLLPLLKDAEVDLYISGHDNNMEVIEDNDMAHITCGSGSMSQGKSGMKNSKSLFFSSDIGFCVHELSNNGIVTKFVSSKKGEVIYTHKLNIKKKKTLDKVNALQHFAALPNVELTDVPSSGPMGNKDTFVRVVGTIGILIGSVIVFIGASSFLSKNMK
bglA: bglA (Thermotoga maritima, UniProt Q08638)
Chain of UniProt Q9SZU7 (whole entry, unmodified, looked up): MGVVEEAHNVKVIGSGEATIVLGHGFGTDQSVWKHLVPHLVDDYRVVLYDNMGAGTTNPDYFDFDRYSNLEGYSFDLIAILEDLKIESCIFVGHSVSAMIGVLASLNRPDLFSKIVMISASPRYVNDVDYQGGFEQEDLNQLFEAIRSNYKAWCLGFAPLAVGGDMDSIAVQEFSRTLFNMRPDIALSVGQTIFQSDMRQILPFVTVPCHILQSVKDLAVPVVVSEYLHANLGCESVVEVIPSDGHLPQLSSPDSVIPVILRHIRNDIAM
Chain of UniProt P52333 (whole entry, looked up): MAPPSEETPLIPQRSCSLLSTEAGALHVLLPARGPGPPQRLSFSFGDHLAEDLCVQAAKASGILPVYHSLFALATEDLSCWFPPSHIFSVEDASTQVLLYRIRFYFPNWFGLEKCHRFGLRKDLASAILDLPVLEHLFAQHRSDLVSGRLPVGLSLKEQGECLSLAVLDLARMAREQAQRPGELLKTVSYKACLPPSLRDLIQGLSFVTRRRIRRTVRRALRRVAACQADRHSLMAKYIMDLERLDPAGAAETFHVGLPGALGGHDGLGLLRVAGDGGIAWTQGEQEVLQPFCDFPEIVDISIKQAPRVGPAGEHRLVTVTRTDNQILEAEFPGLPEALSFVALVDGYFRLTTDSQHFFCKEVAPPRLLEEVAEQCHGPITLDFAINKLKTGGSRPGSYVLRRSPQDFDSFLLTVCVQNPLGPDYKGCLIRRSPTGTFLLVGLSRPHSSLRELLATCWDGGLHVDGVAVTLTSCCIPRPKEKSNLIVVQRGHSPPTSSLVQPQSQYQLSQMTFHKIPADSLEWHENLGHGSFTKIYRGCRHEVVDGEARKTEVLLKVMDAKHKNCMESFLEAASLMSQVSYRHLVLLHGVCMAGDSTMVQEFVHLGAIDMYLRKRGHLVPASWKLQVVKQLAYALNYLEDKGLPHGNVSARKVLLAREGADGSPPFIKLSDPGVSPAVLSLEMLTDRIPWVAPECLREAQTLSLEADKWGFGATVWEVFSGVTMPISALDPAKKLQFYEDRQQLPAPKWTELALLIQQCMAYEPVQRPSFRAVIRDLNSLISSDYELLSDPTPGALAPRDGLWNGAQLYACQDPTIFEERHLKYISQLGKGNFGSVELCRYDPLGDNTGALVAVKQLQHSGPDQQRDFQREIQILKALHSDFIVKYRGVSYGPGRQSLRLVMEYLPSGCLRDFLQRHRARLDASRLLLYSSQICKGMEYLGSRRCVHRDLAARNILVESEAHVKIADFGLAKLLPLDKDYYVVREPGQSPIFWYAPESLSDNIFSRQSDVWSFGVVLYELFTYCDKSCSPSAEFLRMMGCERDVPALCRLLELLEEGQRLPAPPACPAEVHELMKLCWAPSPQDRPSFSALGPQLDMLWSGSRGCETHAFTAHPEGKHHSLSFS
Chain of UniProt Q08638 (whole entry, looked up): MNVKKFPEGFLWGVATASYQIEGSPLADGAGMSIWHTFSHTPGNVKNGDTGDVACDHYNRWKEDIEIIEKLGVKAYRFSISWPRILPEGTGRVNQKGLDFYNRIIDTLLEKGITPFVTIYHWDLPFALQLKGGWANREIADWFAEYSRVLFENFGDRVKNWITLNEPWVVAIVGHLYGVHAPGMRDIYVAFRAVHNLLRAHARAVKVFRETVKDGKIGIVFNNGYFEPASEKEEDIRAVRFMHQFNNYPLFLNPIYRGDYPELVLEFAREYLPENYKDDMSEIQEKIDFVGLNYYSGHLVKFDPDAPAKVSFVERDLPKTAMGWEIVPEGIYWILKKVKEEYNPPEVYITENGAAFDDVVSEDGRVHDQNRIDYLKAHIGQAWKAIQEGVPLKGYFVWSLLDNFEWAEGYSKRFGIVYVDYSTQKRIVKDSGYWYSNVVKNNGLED
Chain of UniProt Q9SR05 (whole entry, looked up): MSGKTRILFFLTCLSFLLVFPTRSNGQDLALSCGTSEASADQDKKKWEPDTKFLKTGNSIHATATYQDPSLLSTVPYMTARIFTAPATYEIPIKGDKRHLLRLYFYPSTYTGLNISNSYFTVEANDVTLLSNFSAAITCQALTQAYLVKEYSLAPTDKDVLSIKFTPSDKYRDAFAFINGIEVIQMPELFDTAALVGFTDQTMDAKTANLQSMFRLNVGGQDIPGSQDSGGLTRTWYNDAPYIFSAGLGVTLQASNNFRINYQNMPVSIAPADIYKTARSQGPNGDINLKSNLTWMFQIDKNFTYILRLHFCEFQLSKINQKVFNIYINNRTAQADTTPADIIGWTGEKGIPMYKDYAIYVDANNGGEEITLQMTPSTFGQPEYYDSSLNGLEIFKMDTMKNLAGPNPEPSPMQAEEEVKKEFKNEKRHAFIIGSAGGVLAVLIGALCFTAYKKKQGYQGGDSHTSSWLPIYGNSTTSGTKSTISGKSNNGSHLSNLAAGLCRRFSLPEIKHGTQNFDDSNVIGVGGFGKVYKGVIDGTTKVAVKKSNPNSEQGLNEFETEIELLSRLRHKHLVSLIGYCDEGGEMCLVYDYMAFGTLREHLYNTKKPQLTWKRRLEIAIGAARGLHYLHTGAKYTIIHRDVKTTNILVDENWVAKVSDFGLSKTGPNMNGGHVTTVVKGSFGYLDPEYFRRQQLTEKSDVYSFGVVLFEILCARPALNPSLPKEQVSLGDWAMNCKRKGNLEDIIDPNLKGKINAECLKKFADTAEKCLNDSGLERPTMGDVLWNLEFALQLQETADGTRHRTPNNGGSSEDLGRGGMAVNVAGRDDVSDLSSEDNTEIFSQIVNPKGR
Chain of UniProt Q969S8 (whole entry, looked up): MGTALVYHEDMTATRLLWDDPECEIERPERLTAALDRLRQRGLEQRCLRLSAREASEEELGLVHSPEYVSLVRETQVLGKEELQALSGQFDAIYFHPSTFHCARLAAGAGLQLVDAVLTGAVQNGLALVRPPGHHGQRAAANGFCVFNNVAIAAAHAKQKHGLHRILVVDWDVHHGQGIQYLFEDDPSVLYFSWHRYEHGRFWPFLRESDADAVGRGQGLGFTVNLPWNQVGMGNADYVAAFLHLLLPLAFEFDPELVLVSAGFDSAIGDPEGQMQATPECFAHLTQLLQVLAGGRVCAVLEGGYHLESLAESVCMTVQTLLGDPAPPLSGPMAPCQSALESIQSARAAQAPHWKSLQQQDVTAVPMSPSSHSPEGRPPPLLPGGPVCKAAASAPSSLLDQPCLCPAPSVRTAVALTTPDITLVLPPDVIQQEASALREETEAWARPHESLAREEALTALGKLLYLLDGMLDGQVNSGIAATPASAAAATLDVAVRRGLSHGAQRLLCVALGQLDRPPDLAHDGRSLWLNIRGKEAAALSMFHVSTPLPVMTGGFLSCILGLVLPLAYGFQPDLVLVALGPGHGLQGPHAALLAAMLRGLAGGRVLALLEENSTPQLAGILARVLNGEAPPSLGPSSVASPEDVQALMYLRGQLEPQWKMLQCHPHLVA
Chain of UniProt Q8WUJ1 (whole entry, looked up): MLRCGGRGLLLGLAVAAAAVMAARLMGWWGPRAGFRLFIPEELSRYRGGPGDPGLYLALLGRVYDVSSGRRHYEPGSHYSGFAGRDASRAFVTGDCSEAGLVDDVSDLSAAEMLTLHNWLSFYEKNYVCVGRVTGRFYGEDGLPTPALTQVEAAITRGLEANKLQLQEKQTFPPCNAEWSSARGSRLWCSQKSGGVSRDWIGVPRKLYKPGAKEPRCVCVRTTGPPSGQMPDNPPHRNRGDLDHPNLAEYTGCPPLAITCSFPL

O=C(NO)c1cnc(NC2(c3cccc(F)c3)CCCCC2)nc1 — Kd (HDAC6 (Homo sapiens, UniProt Q9UBN7); inhibitor, competition pulldown; SW620 and MV4-11 lysate; 1 h): 0.394 µM
C=C[C@H]1CN(Cc2ccccn2)C(=O)[C@@H]2CCC[C@H]1N2Sc1cc(Cl)cc(Cl)c1 — Kd (Peptidyl-prolyl cis-trans isomerase FKBP1B; ligand displacement, FP): 1.36 µM
Cc1ncsc1-c1ccc(CNC(=O)[C@@H]2C[C@@H](O)CN2C(=O)[C@@H](NC(=O)C2(F)CC2)C(C)(C)C)c(OCCC2CN(c3nc(NCC(C)(C)C4(O)CCOC4)nc(N4CCC[C@H]4Cn4ccnn4)n3)C2)c1 (stereo partly drawn) — Kd (BRD9; binding, SPR): 9.7 µM
CCCC/C=C/C(=O)N[C@@H](Cc1cc(F)cc(F)c1)C(=O)N[C@@H]1C(=O)N2CCC[C@H]2C(=O)N2CCCC[C@H]2C(=O)N[C@@H](C)C(=O)N2CCC[C@H]2C(=O)O[C@H]1C — Kd (clpP; peptidase activity, activator; 30 °C, with: fluorogenic decapeptide 15 µM): 1.3 ± 0.067 µM
Cc1c[nH]c2nccc(-c3ccc(C(=O)N[C@@H]4c5c(F)cc(C(F)F)cc5C[C@@H]4O)cn3)c12 — Kd (Tyrosine-protein kinase JAK3, JH1 (JAK3, Homo sapiens, UniProt P52333); binding, competition with immobilised ligand): 0.05 µM
Cc1ncc(CNc2nc(N3CC(CCOc4cc(-c5scnc5C)ccc4CNC(=O)[C@@H]4C[C@@H](O)CN4C(=O)[C@@H](NC(=O)C4(F)CC4)C(C)(C)C)C3)nc(N3CCC[C@H]3Cn3ccnn3)n2)c(N)n1 — Kd (BRD9; binding, SPR): 4.4 µM
Cc1nc2ccc(F)cc2c2c1C1(C)CC2c2cc(F)ccc2N1 (stereo not drawn) — Kd (GAP50; binding, surface plasmon resonance; 1:1 binding model): 12.5 µM
C=CC1CN(Cc2ccccn2)C(=O)C2CCCC1N2[S+]([O-])c1cc(Cl)cc(Cl)c1 (stereo not drawn) — Kd (Peptidyl-prolyl cis-trans isomerase FKBP1B; ligand displacement, FP): 0.211 µM
CCCCCc1ccc(Cc2cc(/C=C/C(=O)OC)cc3cccnc23)cc1 — Kd (GAP50; binding, surface plasmon resonance; 1:1 binding model): 9.51 µM
OC[C@@H]1[C@@H](O)[C@H](O)[C@@H](O)c2nccn21 — Kd (bglA; binding, ITC; pH 5.8): 0.055 µM
CCCCC=CC(=O)NC(Cc1cc(F)cc(F)c1)C(=O)NC1COC(=O)C2CCCN2C(=O)C(C)NC(=O)C(C)N(C)C(=O)C2CCCN2C1=O (stereo not drawn) — Kd (clpP; peptidase activity, activator; 30 °C, with: fluorogenic decapeptide 15 µM): 7.5 ± 0.34 µM
CCc1nc2cc3ccccc3cc2cc1C(=O)N1CCC[C@H]1C(=O)N[C@@H](CCC/C=C/CCC[C@H](NC(=O)[C@@H]1CCCN1C(=O)c1cc2cc3ccccc3cc2nc1CC)C(=O)N[C@@H](CCCCN)C(=O)NCCCN)C(=O)N[C@@H](CCCCN)C(=O)NCCCN — Kd ((CUG)4 RNA; SPR): 0.051 µM
CC(=O)NCC1CCCCN1c1nc(NCC2Cc3ccccc3O2)nc(N2CC3C(CCOc4cc(-c5scnc5C)ccc4CNC(=O)C4CC(O)CN4C(=O)C(NC(=O)C4(F)CC4)C(C)(C)C)C3C2)n1 (stereo not drawn) — Kd (BRD9; binding, SPR): > 20 µM
COc1ccc(C(=O)NO)cc1NC(=O)c1ccc(-c2ccccc2)cc1 — Kd (HDAC10 (Homo sapiens, UniProt Q969S8); inhibitor, competition pulldown; SW620 and MV4-11 lysate; 1 h): 0.672 µM
C=CC(=O)N1CCCN(C(=O)c2cc(Sc3cnc(NC(=O)C4CC4)s3)c(C)cc2OC)C[C@H]1C — Kd (JAK3 (Homo sapiens, UniProt P52333); binding, competition with immobilised ligand): 2.8 µM
CC(=O)NCCN(c1nc(NCc2n[nH]c3c2CCCC3)nc(N2CC3C(CCOc4cc(-c5scnc5C)ccc4CNC(=O)[C@@H]4C[C@@H](O)CN4C(=O)[C@@H](NC(=O)C4(F)CC4)C(C)(C)C)C3C2)n1)C(C)C (stereo partly drawn) — Kd (BRD9; binding, SPR): > 20 µM
CC(=O)c1cnc2ccc(-c3cc(Cl)c(O)c(Cl)c3)nc2c1N[C@H]1CC[C@H](CN(C)C)CC1 — Kd (Receptor-like protein kinase ANXUR1 (ANX1, Arabidopsis thaliana, UniProt Q9SR05); binding, SPR): 51.6 µM
C#CCN1CCN(c2nc(N3CCN(c4ccc(Cc5cc(CNC(=O)[C@@H]6C[C@@H](O)CN6C(=O)[C@@H](NC(=O)C6(F)CC6)C(C)(C)C)c(O)cc5-c5scnc5C)cc4)CC3)nc(N3CCN(C(=O)C4CC4)C3)n2)CC1=O — Kd (BRD9; binding, SPR): 0.455 µM
CCOC(=O)c1ccc2c(c1)C1CC(C)(N2)c2c(C)nc3ccc(C(=O)OCC)cc3c21 (stereo not drawn) — Kd (GAP50; binding, surface plasmon resonance; 1:1 binding model): 1.44 µM
OC[C@H]1c2[nH]cnc2[C@H](O)[C@@H](O)[C@@H]1O — Kd (bglA; binding, ITC; pH 5.8): 36.6 µM
C=CC1CN(Cc2ccccn2)C(=O)C2CCCC1N2S(=O)(=NC1C=CCCC1)c1cc(Cl)cc(Cl)c1 (mixture of isomers) — Kd (Peptidyl-prolyl cis-trans isomerase FKBP1B; ligand displacement, FP): 3.99 µM
Cc1cccc2c1N(C(=O)n1ccnn1)CC2 — Kd (KAI2 (Arabidopsis thaliana, UniProt Q9SZU7, D217E); ITC; D217E mutant): 1120 µM and 1250 µM and 1140 µM
CC(=O)NCC1CCCCN1c1nc(N2CCN(c3nnc[nH]3)CC2)nc(N2CC3C(CCOc4cc(-c5scnc5C)ccc4CNC(=O)[C@@H]4C[C@@H](O)CN4C(=O)[C@@H](NC(=O)C4(F)CC4)C(C)(C)C)C3C2)n1 (stereo partly drawn) — Kd (BRD9; binding, SPR): > 20 µM
CCCC/C=C/C(=O)N[C@@H](Cc1cc(F)cc(F)c1)C(=O)N[C@@H]1C(=O)N2CCC[C@H]2C(=O)N2CC[C@H](C)C[C@H]2C(=O)N[C@@H](C)C(=O)N2CCC[C@H]2C(=O)O[C@H]1C — Kd (clpP; peptidase activity, activator; 30 °C, with: fluorogenic decapeptide 15 µM): 1.1 ± 0.06 µM
CCc1nc2cc3ccccc3cc2cc1C(=O)N1CCC[C@H]1C(=O)N[C@@H](C/C=C\C[C@H](NC(=O)[C@@H]1CCCN1C(=O)c1cc2cc3ccccc3cc2nc1CC)C(=O)N[C@@H](CCCCN)C(=O)NCCCN)C(=O)N[C@@H](CCCCN)C(=O)NCCCN — Kd ((CUG)4 RNA; SPR): 0.019 µM
Cn1ncc2cc(-c3cncc(Cl)c3N3CCC4(CCNC4=O)CC3)ccc21 — Kd (Neuferricin (CYB5D2, Homo sapiens, UniProt Q8WUJ1); SILAC displacement; LS174T-L5 cell lysate): > 12.6 µM
Cc1ccc2c(c1)C1CC(C)(N2)c2c(C)nc3ccc(C)cc3c21 (stereo not drawn) — Kd (GAP50; binding, surface plasmon resonance; 1:1 binding model): 757 µM
Cc1ncsc1-c1ccc(CNC(=O)[C@@H]2C[C@@H](O)CN2C(=O)[C@@H](NC(=O)C2(F)CC2)C(C)(C)C)c(OCCC2CCN(c3nc(NCC(C)(C)C4(O)CCOC4)nc(N4CCC[C@H]4Cn4ccnn4)n3)CC2)c1 (stereo partly drawn) — Kd (BRD9; binding, SPR): 2.5 µM
O=c1c(Oc2ccccc2)c(C(F)(F)F)oc2c(O)c(O)ccc12 — Kd (Cullin-1 (Homo sapiens, UniProt Q13616); binding, MST): 4.46 µM
C=CC1CN(Cc2ccccn2)C(=O)C2CCCC1N2S(=O)(=O)c1cc(Cl)cc(Cl)c1 (stereo not drawn) — Kd (Peptidyl-prolyl cis-trans isomerase FKBP1B; ligand displacement, FP): 0.0069 µM

A few entries again:
Cn1ncc2cc(-c3cncc(Cl)c3N3CCC4(CCNC4=O)CC3)ccc21 — Kd (Neuferricin (CYB5D2, Homo sapiens, UniProt Q8WUJ1); SILAC displacement; LS174T-L5 cell lysate): > 12.6 µM
Cc1ccc2c(c1)C1CC(C)(N2)c2c(C)nc3ccc(C)cc3c21 (stereo not drawn) — Kd (GAP50; binding, surface plasmon resonance; 1:1 binding model): 757 µM
Cc1ncsc1-c1ccc(CNC(=O)[C@@H]2C[C@@H](O)CN2C(=O)[C@@H](NC(=O)C2(F)CC2)C(C)(C)C)c(OCCC2CCN(c3nc(NCC(C)(C)C4(O)CCOC4)nc(N4CCC[C@H]4Cn4ccnn4)n3)CC2)c1 (stereo partly drawn) — Kd (BRD9; binding, SPR): 2.5 µM
